Measured values gathered from unrelated publications.
Each line is one published result; not all experiments were run side by side. ± gives the spread as reported.

N[C@@H](CC(=O)N1CCn2c(nnc2C(F)(F)F)C1)Cc1cc(F)c(F)cc1F
AUC(0-inf) divided by body mass index (human, female, plasma; oral, 100 mg single dose): 171 ± 25.6 ng·h/mL

N[C@]1(C(=O)O)[C@H]2[C@@H](C[C@@H]1F)[C@@H]2C(=O)O
AUC(0-inf) ratio (human, both sexes, plasma; oral, 10 mg, single dose; reference: fed over fasted): 0.747

CCCn1cc(C)c2c(=O)[nH]c(-c3cc(S(=O)(=O)N4CCN(CC)CC4)ccc3OCC)nc21
AUC(0-inf) increase (human, plasma; dose not given, with: alcohol; reference: drug alone): 42.9%

Cc1ccc(C)c(OCCCC(C)(C)C(=O)O)c1
AUC(0-inf) decrease (human, plasma; oral, dose not given, with: lopinavir-ritonavir two weeks; reference: without lopinavir-ritonavir): 41%

N[C@@H]1c2cccnc2[C@H](OC(=O)N2CCC(n3c(=O)[nH]c4ncccc43)CC2)CC[C@H]1c1cccc(F)c1F
AUC(0-inf) decrease (human, plasma; oral, 75 mg single dose, with: rifampin; reference: compound alone): 81%

CC(C)=CCC/C(C)=C/CC/C(C)=C/CC[C@@](C)(O)CCC1=C(C)C(=O)C(C)=C(C)C1=O
AUC(0-inf) geometric mean (healthy human, plasma; oral, 400 mg, with: itraconazole 200 mg): 11100 ng·h/mL

CC(C)[C@@H]1CC[C@@H](C)C[C@H]1OC(=O)O[C@@H](C)OC(=O)[C@H]1[C@@H]2C[C@H](F)[C@@](N)(C(=O)O)[C@@H]21
AUC(0-inf) ratio (human, plasma; oral, 10 mg, single dose; reference: fed over fasted): 0.917

Cc1cc(Nc2ncnc3ccc(NC4=NC(C)(CO)CO4)cc23)ccc1Oc1ccn2ncnc2c1 (centres unmarked)
AUC(0-inf) (geometric mean) (human, plasma; oral, 300 mg tucatinib single dose, day 1, tucatinib alone): 439 ng·h/mL

CC(C)c1nc(N(C)S(C)(=O)=O)nc(-c2ccc(F)cc2)c1/C=C/[C@@H](O)C[C@@H](O)CC(=O)O
AUC(0-inf) decrease (human; oral, dose not given, with: omaveloxolone; reference: substrate alone): 31%

NC[C@@]1(CC(=O)O)[C@@H]2CC[C@H]3C[C@@H]2[C@@H]1C3
AUC(0-inf) increase (human, severe renal impairment, plasma; dose not given; reference: normal renal function): 273%

C[C@H](Oc1ccc(Br)cc1-c1ccon1)C(=O)O
AUC(0-inf) ratio (human, plasma; 800 mg single dose; reference: fed over fasted): 0.95

C=CC(=O)NC1CCN(c2ncc3ncnc(Nc4ccc(Oc5ccc6c(c5)ncn6C)c(C)c4)c3n2)CC1
AUC(0-inf) ratio (healthy male humans, plasma; oral, dose not given, with: carbamazepine; reference: with over without carbamazepine): 37.8%

Cn1cncc1[C@@](N)(c1ccc(Cl)cc1)c1ccc2c(c1)c(-c1cccc(Cl)c1)cc(=O)n2C
AUC(0-inf) decrease (healthy humans, plasma; oral, 300 mg, with: rabeprazole; reference: alone): 20%

C=CC(=O)N(C)CCOc1c(N)ncnc1-c1cc(F)cc(NC(=O)c2ccc(C3CC3)cc2F)c1C
AUC(0-inf) per dose (human; oral, 20 mg, day 7, arithmetic mean, with: ritonavir): 21.4 ng·h/mL/mg

CC1(C)CC[C@]2(NC(=O)C(C)(F)F)CC[C@]3(C)[C@H](C(=O)C=C4[C@@]5(C)C=C(C#N)C(=O)C(C)(C)[C@@H]5CC[C@]43C)[C@@H]2C1
AUC(0-inf) fold increase (human, plasma; oral, dose not given, with: itraconazole; reference: without itraconazole): ~4 fold

CO[C@]1(C(=O)N[C@@H](C)c2ccc(-n3cc(F)cn3)nc2)CC[C@H](c2nc(C)cc(Nc3cc(C)[nH]n3)n2)CC1
AUC(0-inf) increase (human, plasma; oral, 200 mg single dose, with: high-fat meal; reference: fasted): 122%

C=CC(=O)NC1CCN(c2ncc3ncnc(Nc4ccc(Oc5ccc6c(c5)ncn6C)c(C)c4)c3n2)CC1
AUC(0-inf) (human, male; oral, 240 mg, fasted, spray-dried dispersion, geometric mean): 47.6 µM·h

For quick reference, copied from above:
N[C@]1(C(=O)O)[C@H]2[C@@H](C[C@@H]1F)[C@@H]2C(=O)O
AUC(0-inf) ratio (human, both sexes, plasma; oral, 10 mg, single dose; reference: fed over fasted): 0.747
